Results gathered from unrelated publications.
Each numbered part is a random draw from the data of one study; scales do not carry over between parts. “And” joins repeats or separate records; there may be more than shown.

Study 1 — action: inhibitor; concentration: 20 µM
Target: Replicase polyprotein 1ab, nsp13 helicase (rep, Severe acute respiratory syndrome coronavirus 2, UniProt P0DTD1)
CCCc1nc(C)c2c(O)nc(-c3cc(S(=O)(=O)N4CCN(CC)CC4)ccc3OCC)nn12 has an inhibition of 6.74%.
The inhibition of O=C(Nc1ccc(Cl)cc1)Nc1cccc(-c2cccc(N3CCCC3)n2)c1 is reported as 2.29%.
With O=C(N[C@H]1CN2CCC1CC2)c1cc2cccc(Cl)c2s1 the inhibition was 7.14%.
The inhibition of C=C[C@@]1(C)CC(=O)[C@]2(O)[C@@]3(C)[C@@H](O)CCC(C)(C)[C@@H]3[C@H](O)[C@H](OC(C)=O)[C@@]2(C)O1 is reported as 6.94% and -0.16%.
The inhibition of Cc1[nH]c(/C=C2\C(=O)Nc3ccc(F)cc32)c(C)c1C(=O)NCCN1CCCC1 is reported as 16.1%.
COc1ccc(-c2nc(N3CCOCC3)c3sc(CN(C)c4ncc(C(=O)NO)cn4)cc3n2)cn1 gave an inhibition of 12.2%.
The inhibition of CC(C)[C@@H]1CC[C@@H](C)C[C@H]1O is reported as -0.12%.
For Nc1nc(=O)n([C@@H]2CS[C@H](CO)O2)cc1F, the inhibition was 2.1%.
For C=CCSCC1Nc2cc(Cl)c(S(N)(=O)=O)cc2S(=O)(=O)N1 (centres unmarked), the inhibition was 0.81%.
Cc1nc(C)c(Cl)c(O)c1Cl has an inhibition of 0.63%.
For C[N+](C)(C)CC[N+]1(C)Cc2c(Cl)c(Cl)c(Cl)c(Cl)c2C1, the inhibition was 6.11%.
For C/C(=N\NC(=S)NNC(=S)Nc1ccccc1Cl)c1ccccn1, the inhibition was 3.28%.
For Fc1ccc(CNc2ncnc3ccc(F)cc23)cc1, the inhibition was -1.45%.
CC1=C(CCC(=O)O)c2cc3[nH]c(cc4nc(cc5[nH]c(cc1n2)c(C)c5C(C)O)C(C)=C4C(C)O)c(C)c3CCC(=O)O (centres unmarked) has an inhibition of 94.7%.
CCCCCCCCCCCCCCCCCCN(CCCCCCCCCCCCCCCCCC)CCCN(CCO)CCO has an inhibition of 3.16%.
With CCCCN1CCC(CCC(=O)c2cc(Cl)c(N)cc2OC)CC1 the inhibition was 2.82%.
For Nc1c(S(=O)(=O)O)cc(Nc2cccc3ccccc23)c2c1C(=O)c1ccccc1C2=O, the inhibition was 43.2%.
The inhibition of CN(C)CC(c1ccc(O)cc1)C1(O)CCCCC1 (centres unmarked) is reported as 5.86%.
Cc1cc(Nc2ccc(NC(=O)c3ccc(Nc4ccnc5ccccc45)cc3)cc2)nc(N)n1 has an inhibition of 10.9%.
For C/C(=C\CNc1ncnc2nc[nH]c12)CO, the inhibition was 0.68%.

Study 2 — read-out: enzyme activity; action: inhibitor; concentration: 20 µM; setting: hit confirmation, with DTT
Target: Replicase polyprotein 1ab, main protease (rep, Severe acute respiratory syndrome coronavirus 2, UniProt P0DTD1)
The inhibition of O=C(/C=C/c1ccc(O)c(O)c1)O[C@H](Cc1ccc(O)c(O)c1)C(=O)O is reported as -29.4% and -17.8%.
For COc1ccc2[nH]c([S@@+]([O-])Cc3ncc(C)c(OC)c3C)nc2c1, the inhibition was -9%.
CCC[C@H](NC(=O)[C@@H]1[C@H]2CCC[C@H]2CN1C(=O)[C@@H](NC(=O)[C@@H](NC(=O)c1cnccn1)C1CCCCC1)C(C)(C)C)C(=O)C(=O)NC1CC1 gave an inhibition of 36.1%.
c1ccc2sc(SSc3nc4ccccc4s3)nc2c1 gave an inhibition of 99.2%.

Study 3 — technique: RNAcompete; molecule type: RNA; matrix: in vitro; concentration: 20 nM; setting: 7-mer, probes averaged, single round; relative to: mean of 7-mers; reading: higher = stronger binding
Target: PABPC1L2, full length, GST fusion (mouse, UniProt A0ABA7IW68)
Residues (chain): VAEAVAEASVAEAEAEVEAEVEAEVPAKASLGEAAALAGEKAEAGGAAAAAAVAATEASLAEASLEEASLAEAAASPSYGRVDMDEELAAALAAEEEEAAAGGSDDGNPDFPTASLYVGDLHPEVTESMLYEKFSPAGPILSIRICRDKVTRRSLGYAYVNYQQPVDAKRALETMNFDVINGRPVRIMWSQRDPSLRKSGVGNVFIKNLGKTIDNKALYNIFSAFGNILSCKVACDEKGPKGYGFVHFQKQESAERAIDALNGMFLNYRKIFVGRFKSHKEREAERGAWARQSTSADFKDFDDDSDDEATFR
`UAGCCCC` has a 7-mer Z-score of -0.354.
With `UGGCCUU` the 7-mer Z-score was -0.244.
`GGGAUCU` gave a 7-mer Z-score of 0.311.
For `UCUAGUC`, the 7-mer Z-score was -0.358.
The 7-mer Z-score of `GCCAGAA` is reported as 0.198.
For `UAUGAAC`, the 7-mer Z-score was -0.0409.
With `AUCGAAA` the 7-mer Z-score was 0.717.
With `UUUUCUU` the 7-mer Z-score was -0.228.

Study 4 — technique: protein-binding microarray; molecule type: double-stranded DNA, one strand shown; matrix: in vitro; concentration: not given; reading: higher = stronger binding
Target: TATA-box-binding protein 1 (TBP1, Arabidopsis thaliana, UniProt P28147, residues 1-200, full length assumed)
Setting: k-mer, scored over probes, only values ≥0.25
Target sequence (chain): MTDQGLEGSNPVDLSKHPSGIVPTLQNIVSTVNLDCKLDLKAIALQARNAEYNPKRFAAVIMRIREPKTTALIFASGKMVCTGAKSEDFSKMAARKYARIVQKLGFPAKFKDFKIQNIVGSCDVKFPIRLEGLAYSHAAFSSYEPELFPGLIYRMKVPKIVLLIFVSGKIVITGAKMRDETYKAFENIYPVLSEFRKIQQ
For `ACAATAT`, the E-score was 0.337.
With `CTAATTA` the E-score was 0.282.
For `ACTAATA`, the E-score was 0.326.
`ACACTTA` has an E-score of 0.284.

Study 5 — cell line: HEK-293T/ACE2; concentration: 10 µM; time: 16 h; relative to: vehicle
With N=C(N)NC(=O)Cc1c(Cl)cccc1Cl the viability was 102%.
With CCOC(=O)[C@H](CCc1ccccc1)N[C@@H](C)C(=O)N1Cc2ccccc2C[C@H]1C(=O)O the viability was 99.4%.
The viability of CC1(C)S[C@@H]2[C@H](NC(=O)[C@H](N)c3ccccc3)C(=O)N2[C@H]1C(=O)O is reported as 101%.

Study 6 — technique: protein binding microarray; molecule type: double-stranded DNA, one strand shown; matrix: in vitro; concentration: not given; relative to: not given; reading: higher = stronger binding
Target: Histone acetyltransferase KAT6A, winged helix 2, GST fusion (KAT6A, Homo sapiens, UniProt Q92794, residues 85-181)
Setting: 8-mer, flanks averaged, mean of 2 arrays, mostly near background
Construct (chain): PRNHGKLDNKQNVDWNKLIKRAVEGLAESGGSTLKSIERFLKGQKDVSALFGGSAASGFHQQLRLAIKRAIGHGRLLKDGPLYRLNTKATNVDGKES
The E-score of `ATAATAGG` is reported as 0.0447.
`AACTGTCC` gave an E-score of 0.0156.
`AGAGATTA` has an E-score of -0.106.
For `ATAGCATG`, the E-score was -0.09.
`GGGTCCAC` gave an E-score of 0.0265.
`TACTGTAA` gave an E-score of -0.123.
The E-score of `ATGATTAA` is reported as 0.115.
For `ATCAACGC`, the E-score was 0.0245.

Some of these lines once more (study 1):
For C/C(=C\CNc1ncnc2nc[nH]c12)CO, the inhibition was 0.68%.
CCCc1nc(C)c2c(O)nc(-c3cc(S(=O)(=O)N4CCN(CC)CC4)ccc3OCC)nn12 has an inhibition of 6.74%.
CCCCCCCCCCCCCCCCCCN(CCCCCCCCCCCCCCCCCC)CCCN(CCO)CCO has an inhibition of 3.16%.
Cc1cc(Nc2ccc(NC(=O)c3ccc(Nc4ccnc5ccccc45)cc3)cc2)nc(N)n1 has an inhibition of 10.9%.
Cc1nc(C)c(Cl)c(O)c1Cl has an inhibition of 0.63%.
CC1=C(CCC(=O)O)c2cc3[nH]c(cc4nc(cc5[nH]c(cc1n2)c(C)c5C(C)O)C(C)=C4C(C)O)c(C)c3CCC(=O)O (centres unmarked) has an inhibition of 94.7%.
